Experimental data of several laboratories.
Each line is one published result; not all experiments were run side by side. Several values in a cell are separate wells, animals, samples, runs or records.
CDK1 with cyclin B1: Cyclin-dependent kinase 1, with cyclin B1 (CDK1, Homo sapiens, UniProt P06493)
Chain of UniProt P06493 (whole entry, looked up): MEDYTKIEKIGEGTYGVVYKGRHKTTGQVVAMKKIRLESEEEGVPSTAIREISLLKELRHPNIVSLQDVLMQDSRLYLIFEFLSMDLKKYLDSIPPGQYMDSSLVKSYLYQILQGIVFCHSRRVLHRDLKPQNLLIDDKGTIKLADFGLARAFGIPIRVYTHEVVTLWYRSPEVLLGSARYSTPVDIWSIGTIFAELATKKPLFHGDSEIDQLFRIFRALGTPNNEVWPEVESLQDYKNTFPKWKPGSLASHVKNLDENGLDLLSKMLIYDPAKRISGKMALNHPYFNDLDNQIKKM
CDK1 with cyclin E: Cyclin-dependent kinase 1, with cyclin E (CDK1, Homo sapiens, UniProt P06493)
CDK1: Cyclin-dependent kinase 1 (CDK1, Homo sapiens, UniProt P06493)
CDK1 with cyclin B: Cyclin-dependent kinase 1, with cyclin B (CDK1, Homo sapiens, UniProt P06493)
CDK1 with cyclin A: Cyclin-dependent kinase 1, with cyclin A (CDK1, Homo sapiens, UniProt P06493)

SMILES | target | test | system | conditions | scale | endpoint | value
CCn1cc(C(=O)O)c(=O)c2c(N)c(F)c(NC3CCCCC3)cc21 | Cyclin-dependent kinase 1, with cyclin A1 (CDK1, Homo sapiens, UniProt P06493) | kinase activity | – | 0.1 µM, together with: ATP at Km | – | inhibition | 3.4%
CN1C[C@@H](c2c[nH]c3cc(Br)ccc23)NC[C@@H]1c1c[nH]c2cc(Br)ccc12 | CDK1 with cyclin B1 | enzyme activity, inhibitor | – | 10 µM | – | remaining activity | 111%
N[C@H]1CC[C@H](Nc2nccc(-c3cccnc3Oc3ccc(NC(=O)NC4CC4)c4ccccc34)n2)CC1 | CDK1 with cyclin B1 | kinobead competition pulldown, measured: CCNB1 | HEK293/HCT116 lysate mixture | 10 µM, 1 h, 4 °C | lower = stronger competition | log2 LFQ intensity | 25.9 and 25.8
COCC12C(=O)NC3C4(C(OC)CC1O)C1CC5(O)C(OC)C(O)C(OC(C)=O)(C1C5OC(=O)c1ccccc1)C3(O)C(OC)C24 (centres unmarked) | CDK1 with cyclin E | kinase activity, inhibitor, ProQinase kinase profiling | – | 25 µM | reference: control | remaining activity | 102% and 95%
Nc1ncc(-c2cc(-c3cnn(CC(F)(F)F)c3)ncc2F)nc1C(=O)NC1CNCC(F)C1 (centres unmarked) | CDK1 with cyclin E | enzyme activity | – | 1 µM | reference: DMSO control | remaining activity | 86.1%
Cc1cccc(O[C@H]2CCC[C@@H](C(C)CNCc3ccncc3)C2)c1 (relative stereo) | CDK1 | enzyme activity, inhibitor | – | 10 µM | – | inhibition | -4%
COc1ccc(O)cc1-c1c[nH]c2ncc(-c3cncc(C(=O)N(C)C)c3)cc12 | Cyclin-dependent kinase 1, with cyclin E1 (CDK1, Homo sapiens, UniProt P06493) | binding, competition with immobilised ligand | – | 0.2 µM | – | inhibition | 16.1%
O=C(O)CCC(=O)c1cccc(NS(=O)(=O)c2c[nH]c3ncccc23)c1 | CDK1 with cyclin B | kinase activity, radiometric | – | 10 µM | – | remaining activity | 111%
NC(=O)C[C@H]1CCc2sc3ncnc(O[C@H]4CC[C@H](N5CCOCC5)CC4)c3c21 | CDK1 with cyclin A | enzyme activity, inhibitor | – | 10 µM | – | inhibition | 1%
Cc1cc(C)nc(Nc2ccc([C@@H]3CCCN(C(=O)/C=C/c4csc(C)n4)C3)nc2)n1 | CDK1 | enzyme activity, inhibitor, ADP detection | – | 1 µM | – | activity vs control | 98%
NC(=O)[C@@H](O)C[C@H]1CCc2sc3ncnc(O[C@H]4CC[C@H](N5CCOCC5)CC4)c3c21 | CDK1 with cyclin A | enzyme activity, inhibitor | – | 10 µM | – | inhibition | 11%
CCc1nnc(Nc2cnc([C@@H]3CCCN(C(=O)CCc4cccnc4)C3)cn2)s1 | CDK1 | enzyme activity, inhibitor, ADP detection | – | 1 µM | – | activity vs control | 101%
Cc1[nH]nc2c1N=C(c1ccccc1Cl)c1cnc(N3CCOCC3)cc1N2 | CDK1 | enzyme activity, inhibitor | – | 0.5 µM | – | inhibition | 2%
O=c1c(-c2ccc(Cl)c(CN3CCOCC3)c2)coc2cc(O)ccc12 | CDK1 with cyclin B | enzyme activity, inhibitor | – | 1 µM | – | remaining activity | 96%

Some of these lines once more:
SMILES | target | test | system | conditions | scale | endpoint | value
N[C@H]1CC[C@H](Nc2nccc(-c3cccnc3Oc3ccc(NC(=O)NC4CC4)c4ccccc34)n2)CC1 | CDK1 with cyclin B1 | kinobead competition pulldown, measured: CCNB1 | HEK293/HCT116 lysate mixture | 10 µM, 1 h, 4 °C | lower = stronger competition | log2 LFQ intensity | 25.9 and 25.8
